Published values of several laboratories.
Each line is one published result; not all experiments were run side by side. “And” joins repeats or separate records; there may be more than shown. ± gives the spread as reported.
XPO1: Exportin-1 (XPO1, Homo sapiens, UniProt O14980)
UniProt O14980, sequence (whole entry, looked up): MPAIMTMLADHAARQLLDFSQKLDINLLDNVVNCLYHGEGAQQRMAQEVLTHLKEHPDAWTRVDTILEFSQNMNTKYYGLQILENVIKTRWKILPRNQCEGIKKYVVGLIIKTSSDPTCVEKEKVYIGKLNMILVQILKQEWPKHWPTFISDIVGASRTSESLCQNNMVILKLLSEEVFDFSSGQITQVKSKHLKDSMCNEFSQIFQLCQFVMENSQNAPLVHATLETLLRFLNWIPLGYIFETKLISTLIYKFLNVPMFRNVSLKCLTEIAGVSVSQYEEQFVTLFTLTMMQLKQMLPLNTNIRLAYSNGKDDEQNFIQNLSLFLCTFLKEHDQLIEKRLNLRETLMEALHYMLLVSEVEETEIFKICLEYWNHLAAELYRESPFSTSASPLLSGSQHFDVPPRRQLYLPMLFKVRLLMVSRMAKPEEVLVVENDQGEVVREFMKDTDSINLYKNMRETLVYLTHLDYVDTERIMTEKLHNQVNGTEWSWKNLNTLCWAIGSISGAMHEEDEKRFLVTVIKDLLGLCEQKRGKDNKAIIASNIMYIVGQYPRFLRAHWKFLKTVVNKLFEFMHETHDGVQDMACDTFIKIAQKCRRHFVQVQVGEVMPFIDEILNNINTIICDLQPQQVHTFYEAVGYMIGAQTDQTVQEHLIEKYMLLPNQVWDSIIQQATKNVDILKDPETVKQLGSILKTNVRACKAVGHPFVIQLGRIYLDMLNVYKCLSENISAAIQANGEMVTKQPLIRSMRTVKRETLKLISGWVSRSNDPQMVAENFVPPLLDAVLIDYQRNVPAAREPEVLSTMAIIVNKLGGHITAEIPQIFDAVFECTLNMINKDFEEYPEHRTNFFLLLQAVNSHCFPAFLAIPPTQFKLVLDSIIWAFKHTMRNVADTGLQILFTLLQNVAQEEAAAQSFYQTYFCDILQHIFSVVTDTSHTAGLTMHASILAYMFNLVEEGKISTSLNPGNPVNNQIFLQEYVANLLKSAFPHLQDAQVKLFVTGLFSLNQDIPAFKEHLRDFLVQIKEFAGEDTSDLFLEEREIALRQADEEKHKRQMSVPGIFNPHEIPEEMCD
Nuclear receptor subfamily 2 group C member 2 ligand-binding domain: Nuclear receptor subfamily 2 group C member 2, ligand-binding domain (Homo sapiens, UniProt P49116)
UniProt Q16774, sequence (whole entry, looked up): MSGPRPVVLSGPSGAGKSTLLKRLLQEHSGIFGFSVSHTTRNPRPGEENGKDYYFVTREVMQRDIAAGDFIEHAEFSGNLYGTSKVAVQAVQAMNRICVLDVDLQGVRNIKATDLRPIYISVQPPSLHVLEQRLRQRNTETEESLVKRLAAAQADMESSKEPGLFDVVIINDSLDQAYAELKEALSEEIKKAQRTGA
UniProt P27361, sequence (whole entry, looked up): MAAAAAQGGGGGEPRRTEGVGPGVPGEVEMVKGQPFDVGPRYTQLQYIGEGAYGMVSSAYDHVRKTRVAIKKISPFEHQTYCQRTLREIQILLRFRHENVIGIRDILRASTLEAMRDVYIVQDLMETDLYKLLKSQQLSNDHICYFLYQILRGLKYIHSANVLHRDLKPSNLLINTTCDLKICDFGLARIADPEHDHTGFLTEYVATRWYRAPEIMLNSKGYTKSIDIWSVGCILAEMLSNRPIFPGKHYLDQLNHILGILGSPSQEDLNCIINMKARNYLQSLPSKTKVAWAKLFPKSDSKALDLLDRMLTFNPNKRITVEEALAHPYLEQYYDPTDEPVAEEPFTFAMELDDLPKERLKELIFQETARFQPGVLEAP
UniProt O76090, sequence (whole entry, unmodified, looked up): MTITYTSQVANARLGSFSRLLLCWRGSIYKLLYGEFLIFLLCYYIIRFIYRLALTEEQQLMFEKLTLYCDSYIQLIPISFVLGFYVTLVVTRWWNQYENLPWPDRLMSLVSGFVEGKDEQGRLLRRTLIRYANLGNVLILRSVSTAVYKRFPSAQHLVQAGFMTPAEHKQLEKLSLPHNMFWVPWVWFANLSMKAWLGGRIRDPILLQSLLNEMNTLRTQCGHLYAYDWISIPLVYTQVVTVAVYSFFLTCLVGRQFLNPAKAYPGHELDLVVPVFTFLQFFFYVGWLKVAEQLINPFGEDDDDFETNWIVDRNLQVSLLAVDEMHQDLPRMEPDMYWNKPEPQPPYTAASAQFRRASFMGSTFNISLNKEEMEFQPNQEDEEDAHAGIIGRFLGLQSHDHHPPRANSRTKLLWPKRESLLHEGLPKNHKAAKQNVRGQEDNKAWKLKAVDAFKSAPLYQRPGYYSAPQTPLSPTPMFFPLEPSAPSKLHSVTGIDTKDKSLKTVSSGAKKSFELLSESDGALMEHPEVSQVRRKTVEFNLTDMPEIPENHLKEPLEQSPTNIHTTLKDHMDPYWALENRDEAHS
UniProt P49116, sequence (whole entry, looked up): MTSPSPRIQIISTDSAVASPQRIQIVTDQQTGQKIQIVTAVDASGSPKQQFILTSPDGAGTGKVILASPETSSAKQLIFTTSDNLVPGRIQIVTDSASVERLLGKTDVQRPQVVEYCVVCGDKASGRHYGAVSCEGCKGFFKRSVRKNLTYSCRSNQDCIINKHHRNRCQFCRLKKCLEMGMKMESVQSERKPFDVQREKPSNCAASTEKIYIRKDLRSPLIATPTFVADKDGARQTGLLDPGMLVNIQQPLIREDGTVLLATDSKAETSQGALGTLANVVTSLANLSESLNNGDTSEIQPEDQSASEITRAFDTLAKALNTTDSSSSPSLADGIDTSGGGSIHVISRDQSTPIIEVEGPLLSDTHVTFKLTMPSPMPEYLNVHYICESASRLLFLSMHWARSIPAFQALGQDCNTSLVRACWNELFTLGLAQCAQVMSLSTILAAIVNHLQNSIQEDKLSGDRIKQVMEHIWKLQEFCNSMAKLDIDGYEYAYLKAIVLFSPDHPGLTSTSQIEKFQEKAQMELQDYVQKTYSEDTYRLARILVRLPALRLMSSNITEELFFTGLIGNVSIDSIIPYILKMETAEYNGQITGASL
UniProt P02911, sequence (whole entry, looked up): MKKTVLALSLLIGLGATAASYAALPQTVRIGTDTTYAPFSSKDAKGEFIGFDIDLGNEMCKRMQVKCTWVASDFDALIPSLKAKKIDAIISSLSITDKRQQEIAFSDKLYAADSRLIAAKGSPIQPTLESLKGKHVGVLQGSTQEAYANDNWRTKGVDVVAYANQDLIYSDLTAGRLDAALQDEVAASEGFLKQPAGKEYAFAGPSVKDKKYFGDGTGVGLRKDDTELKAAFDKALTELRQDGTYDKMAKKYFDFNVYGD
UniProt P11388, sequence (whole entry, looked up): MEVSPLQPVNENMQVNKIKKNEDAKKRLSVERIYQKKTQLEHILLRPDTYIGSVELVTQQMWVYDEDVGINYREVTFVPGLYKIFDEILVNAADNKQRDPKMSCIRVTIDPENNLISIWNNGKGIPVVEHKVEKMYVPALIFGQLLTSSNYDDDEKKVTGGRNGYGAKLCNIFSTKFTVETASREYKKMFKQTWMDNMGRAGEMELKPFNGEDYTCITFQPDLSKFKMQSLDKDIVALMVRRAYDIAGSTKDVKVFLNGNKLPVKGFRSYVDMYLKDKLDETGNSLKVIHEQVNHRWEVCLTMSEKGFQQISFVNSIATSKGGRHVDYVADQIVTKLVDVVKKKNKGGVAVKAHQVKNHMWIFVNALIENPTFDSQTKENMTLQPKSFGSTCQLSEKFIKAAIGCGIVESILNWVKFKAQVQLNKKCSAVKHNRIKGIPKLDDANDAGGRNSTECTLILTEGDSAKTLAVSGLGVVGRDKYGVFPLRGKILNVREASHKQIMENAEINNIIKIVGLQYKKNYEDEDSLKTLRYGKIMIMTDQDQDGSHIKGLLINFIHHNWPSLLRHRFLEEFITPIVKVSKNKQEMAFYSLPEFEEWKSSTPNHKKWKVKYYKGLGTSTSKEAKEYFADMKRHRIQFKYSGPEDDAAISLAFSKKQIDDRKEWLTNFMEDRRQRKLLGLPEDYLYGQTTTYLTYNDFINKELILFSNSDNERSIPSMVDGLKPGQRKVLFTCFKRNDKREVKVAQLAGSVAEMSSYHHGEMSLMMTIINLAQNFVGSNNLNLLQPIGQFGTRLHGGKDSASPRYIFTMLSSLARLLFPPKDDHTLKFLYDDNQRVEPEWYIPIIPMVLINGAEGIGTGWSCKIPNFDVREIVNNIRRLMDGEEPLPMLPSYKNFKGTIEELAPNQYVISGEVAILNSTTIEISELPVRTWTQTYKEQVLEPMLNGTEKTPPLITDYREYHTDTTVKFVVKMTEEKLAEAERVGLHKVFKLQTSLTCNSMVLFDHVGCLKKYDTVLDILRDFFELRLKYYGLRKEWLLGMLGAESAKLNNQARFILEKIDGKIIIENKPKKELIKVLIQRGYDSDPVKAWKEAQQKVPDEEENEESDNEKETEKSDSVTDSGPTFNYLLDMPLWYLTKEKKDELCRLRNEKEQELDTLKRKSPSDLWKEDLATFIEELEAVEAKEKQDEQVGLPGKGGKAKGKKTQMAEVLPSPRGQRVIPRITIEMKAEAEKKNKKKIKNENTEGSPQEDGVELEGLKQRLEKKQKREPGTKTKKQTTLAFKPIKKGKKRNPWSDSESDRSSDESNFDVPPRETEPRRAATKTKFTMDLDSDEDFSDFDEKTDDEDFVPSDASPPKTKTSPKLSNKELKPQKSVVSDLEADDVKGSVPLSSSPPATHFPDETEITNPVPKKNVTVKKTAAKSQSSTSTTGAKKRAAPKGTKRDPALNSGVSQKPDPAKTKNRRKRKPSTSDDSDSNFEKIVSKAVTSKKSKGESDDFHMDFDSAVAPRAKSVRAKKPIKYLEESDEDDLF
UniProt P51575, sequence (whole entry, unmodified, looked up): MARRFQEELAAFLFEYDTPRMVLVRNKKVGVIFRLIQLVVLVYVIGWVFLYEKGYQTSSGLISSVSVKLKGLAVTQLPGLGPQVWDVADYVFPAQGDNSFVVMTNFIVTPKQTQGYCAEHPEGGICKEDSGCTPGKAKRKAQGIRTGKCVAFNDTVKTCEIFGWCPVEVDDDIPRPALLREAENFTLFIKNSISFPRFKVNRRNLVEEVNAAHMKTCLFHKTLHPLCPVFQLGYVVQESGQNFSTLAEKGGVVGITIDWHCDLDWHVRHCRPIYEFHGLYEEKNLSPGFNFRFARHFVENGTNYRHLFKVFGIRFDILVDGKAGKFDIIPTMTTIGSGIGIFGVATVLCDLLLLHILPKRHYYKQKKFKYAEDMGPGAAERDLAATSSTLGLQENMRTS

C=CC(=O)N1CCC(COCC(=O)N2CCN(c3nc(-c4cnc(N)nc4C(F)F)nc(N4CCOC[C@@H]4C)n3)CC2)CC1 has a remaining binding of 100% (EGFR (Homo sapiens, UniProt P00533, del752-759); KINOMEscan; 1 µM; reference: DMSO control).
For CC[C@@H]1[C@H](F)C(=O)N[C@@H]1COc1nccc2cc(C(N)=O)c(OC)cc12, the inhibition was 3.9% (MAP2K1 (Homo sapiens, UniProt Q02750); ATP-site probe binding, ActivX profiling; THP-1 cell lysate; 0.2 mM, Lys2 site).
The Km of O=C1OC(c2ccccc2)=N/C1=C\c1ccccc1O is reported as 973 µM (Pancreatic alpha-amylase (Homo sapiens, UniProt P04746); inhibitor, Lineweaver-Burk; 300 ppm, together with: starch substrate).
COCCC(=O)N1CCC(Oc2ccccc2)C1 (centres unmarked): “log fold enrichment” -0.0735 (S-phase kinase-associated protein 1 (SKP1, Homo sapiens, UniProt P63208); binding, affinity selection mass spectrometry; reference: other proteins in batch).
Under “cells with nuclear reporter”, CC(Nc1nc(N2CCCC2)nc2ccccc12)c1ccccc1 (centres unmarked) is recorded as 2.37% and 4.89% and 4.45% (XPO1; nuclear export, high content imaging; HeLa Kyoto reporter; 1 µM, 2 h).
CC(C)C(=O)Nc1n[nH]c2cc(-c3cccc(NS(=O)(=O)C4CC4)c3)ccc12 gave an ADP produced of 2.88 µM (PIP5K1C (Homo sapiens, UniProt O60331); ADP-Glo; 1.52 nM, together with: 10 µM ATP).
With C[C@@H]1CCO[C@H]2Cn3cc(C(=O)NCc4ccc(F)cc4F)c(=O)c(O)c3C(=O)N12 the inhibition was -0.475% (SLC29A4 (Homo sapiens, UniProt Q7RTT9); transport; MDCK-II, transfected; 50 µM, together with: MPP+ 10 µM).
With CN(CCCCNC(=O)c1cc2ccccc2[nH]1)[C@@H]1Cc2cccc3[nH]c(=O)n(c23)C1 the Hill coefficient was -0.63 ± 0.07 (HTR1A (Homo sapiens, UniProt P08908); binding; together with: [3H]8-OH-DPAT).
For C[C@]12CC[C@@H]3c4ccc(O)cc4CC[C@H]3[C@@H]1C[C@@H](O)[C@@H]2O, the koff was 3.32e-07 s⁻¹ (Nuclear receptor subfamily 2 group C member 2 ligand-binding domain; SPR imaging; 600 nM).
COc1cc2nc(N3CCCN(C)CC3)nc(NC3CCN(Cc4ccccc4)CC3)c2cc1OC has a viability of 187% (OCI-Ly1; 0.1 µM, 120 h).
N#Cc1ccn2c(-c3ccncc3)c(-c3ccc(F)cc3)nc2c1: “log2 fold change” -0.301 (Serine/threonine-protein kinase CBK1 (CBK1, Candida albicans, UniProt Q5AP53); kinase binding, competitor, MIB/MS competition, measured: CBK1; Candida albicans cell lysate; 10 µM; reference: DMSO).
With Nc1[nH]nc2nnc(-c3c(-c4ccccc4)nn4ccccc34)cc12 the kinase activity was 69.7% and 87.1% and 113% (MAPK3 (Homo sapiens, UniProt P27361); ADP-Glo; 100 nM, together with: MBP substrate).
Nc1nc2c(ncn2[C@@H]2O[C@H](COP(=O)(O)O)[C@@H](O)[C@H]2O)c(=O)[nH]1 gave a reaction velocity of 0.0777 µM/s and 0.0885 µM/s and 0.0838 µM/s (GUK1 (Homo sapiens, UniProt Q16774); enzyme activity, NADH-coupled; 500 µM, together with: NaCl 10 mM).
Nc1ccc(C(=O)O)cc1 has a current density of 33.2 pA/pF and 41.6 pA/pF and 33.7 pA/pF and 7.07 pA/pF and 11.1 pA/pF and 36.5 pA/pF and 38.4 pA/pF (BEST1, with wild-type BEST1 (Homo sapiens, UniProt O76090, A243T); whole-cell patch clamp; HEK293 co-expressing WT and A243T mutant; concentration not given, membrane potential 100 mV).
With C=C1/C(=C\C=C2/CCC[C@]3(C)[C@@H]([C@H](C)/C=C/[C@H](C)C(C)C)CC[C@@H]23)C[C@@H](O)C[C@@H]1O the koff was 2.67e-07 s⁻¹ (Nuclear receptor subfamily 2 group C member 2 ligand-binding domain; SPR imaging; 600 nM).
For O=c1oc2c(O)c(O)cc3c(=O)oc4c(O)c(O)cc1c4c23, the viability was 86.3% (OCI-Ly1; 0.5 µM, 120 h).
For Nc1ncnc2c1ncn2[C@@H]1O[C@H](COP(=O)(O)CP(=O)(O)OP(=O)(O)O)[C@@H](O)[C@H]1O, the specific binding was 2560 CCPM (P2X purinoceptor 1 (P2RX1, Homo sapiens, UniProt P51575, E282A); saturation binding; HEK293; 130 nM).
Under “cells with nuclear reporter”, CC[S+]([O-])c1nc(-c2ccccc2)cc(C(F)(F)F)n1 (centres unmarked) is recorded as 2.14% and 5.4% and 3.98% (XPO1; nuclear export, high content imaging; HeLa Kyoto reporter; 0.5 µM, 2 h).
For O=C1CSC(=S)N1NC(=S)SSC(=S)NN1C(=O)CSC1=S, the positive cells was 26% (PTPN22 (Homo sapiens, UniProt Q9Y2R2); inhibitor, phospho-flow cytometry; 100 µM, together with: TCR stimulation; reference: DMSO).
For CC[C@H](C)[C@@H]1NC(=O)[C@H](CCCNC(=N)N)NC(=O)[C@@H]2CCCN2C(=O)[C@H](Cc2ccccc2)NC(=O)[C@H]([C@@H](C)O)NC(=O)CNC(=O)[C@H](CC(C)C)NC(=O)[C@@H]2CCCN2C(=O)[C@H]([C@@H](C)O)NC(=O)[C@H](Cc2c[nH]c3ccccc23)NC(=O)[C@H](Cc2ccc(O)cc2)NC(=O)[C@H]([C@@H](C)CC)NC(=O)[C@H]([C@@H](C)O)NC(=O)[C@H]([C@@H](C)O)NC(=O)[C@@H](Cc2ccc(O)cc2)NC(=O)CSC[C@@H](C(N)=O)NC(=O)[C@H](CCCNC(=N)N)NC1=O, the -TΔS was 1.4 ± 0.9 kcal/mol (VPS35/VPS29 (Homo sapiens, UniProt Q96QK1+Q9UBQ0); binding, ITC; 25 °C, heterodimer).
With COc1cc(O)c2c(c1)C(=O)c1cc(C)cc(O)c1C2=O the cell viability was 97.5 ± 13% (HepaRG co-cultured with HK-2; MTT; 133.33 µM, 24 h; reference: untreated control).
N=C(N)NCCC[C@H](N)C(=O)O gave a Ka of 1.02e+08 M⁻¹ and 9.55e+07 M⁻¹ (argT (Salmonella enterica, UniProt P02911); binding, isothermal titration calorimetry; two-sets-of-sites model, site 2, mixture with SAR11_1210).
The cell viability of COc1cc2c(c(O)c1OC)C(=O)c1c(cc(C)c(O)c1OC)C2=O is reported as 65.6 ± 8.2% (HepaRG co-cultured with HK-2; MTT; 66.67 µM, 24 h; reference: untreated control).
C=CC(=O)N1CCC[C@@H](n2nc(-c3ccc(Oc4ccccc4)cc3)c3c(N)ncnc32)C1 gave a remaining activity of 206% (ERBB3 (Homo sapiens, UniProt P21860); 1 µM).
COc1ccccc1N1CCN(CCCCN2CCc3ccccc3C2=O)CC1 has an inhibition of 9.7% (HTR4 (Homo sapiens, UniProt Q13639); radioligand binding; concentration not given).
CCCCC[C@H]1CN(c2cccc(OC(F)(F)F)c2)C(=O)CN1Cc1cncn1Cc1ccc(Br)cc1 gave an IC50 of 160 ± 20 nM (Cryptococcus neoformans farnesyltransferase; enzyme activity, inhibitor, fluorescence; together with: 1 µM FPP, 0.5 µM dansylated peptide).
COCCOCc1ccc(-c2cc3onc(-c4ccccc4)c3c(=O)n2C)cc1 gave a confluence of 0.95 ± 0.01 (COS-7; 3 µM, 24 h, 0.1% DMSO, unit not given; reference: vehicle control).
For CC[C@H](CO)N(CCN(N=O)[C@H](CC)CO)N=O, “lowest mutagenic concentration” read 5000 µg/plate (Salmonella typhimurium; TA1535, water; concentration not given, plate incorporation, no S9).
O=c1nc(SCc2cc(F)cc(C(F)(F)F)c2)nc(SCc2ccc3nc(Cl)ccc3c2)[nH]1: “ATP hydrolysis rate” 0.218 µM/min and 1.01 µM/min (TOP2A (Homo sapiens, UniProt P11388); ATPase activity; 7.8 µM, together with: ATP 0.1 mM).
The confluence of C=C1C(=O)O[C@@H]2C[C@@]3(C)CCCC(=C)[C@@H]3C[C@H]12 is reported as 0.81 ± 0.12 (COS-7; 10 µM, 24 h, 0.1% DMSO, unit not given; reference: vehicle control).
The remaining activity of O=C(O)c1ccc(Nc2ncc3c(n2)-c2ccc(Cl)cc2C(c2c(F)cccc2F)=NC3)cc1 is reported as 103% (human DCAMKL2(h); kinase activity; 1 µM).
For CCN1CCCC1CNC(=O)c1cc(S(=O)(=O)CC)c(N)cc1OC (centres unmarked), the koff was 2.99e-07 s⁻¹ (Nuclear receptor subfamily 2 group C member 2 ligand-binding domain; SPR imaging; 600 nM).
COC(=O)c1ccccc1SC1=NS(=O)(=O)c2ccccc21: Km “no effect” (PKLR (Homo sapiens, UniProt P30613); enzyme activity, activator, ADP and PEP titration; 0.5 mM, apparent Km, Vmax, Hill coefficient, together with: PEP or ADP substrate).
CC(Oc1ccccc1)C(=O)NCc1ccccn1 (centres unmarked) — result for “log fold enrichment”: -0.148 (DCAF1 (Homo sapiens, UniProt Q9Y4B6); binding, affinity selection mass spectrometry; reference: other proteins in batch).
COc1ccccc1OCC(O)COC(N)=O (centres unmarked) gave a koff of 8.8e-07 s⁻¹ (Nuclear receptor subfamily 2 group C member 2 ligand-binding domain; SPR imaging; 600 nM).

Repeated from above:
COc1ccccc1OCC(O)COC(N)=O (centres unmarked) gave a koff of 8.8e-07 s⁻¹ (Nuclear receptor subfamily 2 group C member 2 ligand-binding domain; SPR imaging; 600 nM).
CC(Oc1ccccc1)C(=O)NCc1ccccn1 (centres unmarked) — result for “log fold enrichment”: -0.148 (DCAF1 (Homo sapiens, UniProt Q9Y4B6); binding, affinity selection mass spectrometry; reference: other proteins in batch).
For CC[C@H](C)[C@@H]1NC(=O)[C@H](CCCNC(=N)N)NC(=O)[C@@H]2CCCN2C(=O)[C@H](Cc2ccccc2)NC(=O)[C@H]([C@@H](C)O)NC(=O)CNC(=O)[C@H](CC(C)C)NC(=O)[C@@H]2CCCN2C(=O)[C@H]([C@@H](C)O)NC(=O)[C@H](Cc2c[nH]c3ccccc23)NC(=O)[C@H](Cc2ccc(O)cc2)NC(=O)[C@H]([C@@H](C)CC)NC(=O)[C@H]([C@@H](C)O)NC(=O)[C@H]([C@@H](C)O)NC(=O)[C@@H](Cc2ccc(O)cc2)NC(=O)CSC[C@@H](C(N)=O)NC(=O)[C@H](CCCNC(=N)N)NC1=O, the -TΔS was 1.4 ± 0.9 kcal/mol (VPS35/VPS29 (Homo sapiens, UniProt Q96QK1+Q9UBQ0); binding, ITC; 25 °C, heterodimer).
Nc1ccc(C(=O)O)cc1 has a current density of 33.2 pA/pF and 41.6 pA/pF and 33.7 pA/pF and 7.07 pA/pF and 11.1 pA/pF and 36.5 pA/pF and 38.4 pA/pF (BEST1, with wild-type BEST1 (Homo sapiens, UniProt O76090, A243T); whole-cell patch clamp; HEK293 co-expressing WT and A243T mutant; concentration not given, membrane potential 100 mV).
